Published values from different studies.
Every numbered part comes from another study and shows a few of its results, in no order.

Study 1
Target: Histone acetyltransferase KAT6A, both winged helices, GST fusion (KAT6A, Homo sapiens, UniProt Q92794, residues 1-181)
Method: protein binding microarray
Form: double-stranded DNA, one strand shown
Matrix: in vitro
Concentration: not given
Notes: 8-mer, flanks averaged, mean of 2 arrays, mostly near background
Baseline: not given
Direction: higher = stronger binding
Residues (chain): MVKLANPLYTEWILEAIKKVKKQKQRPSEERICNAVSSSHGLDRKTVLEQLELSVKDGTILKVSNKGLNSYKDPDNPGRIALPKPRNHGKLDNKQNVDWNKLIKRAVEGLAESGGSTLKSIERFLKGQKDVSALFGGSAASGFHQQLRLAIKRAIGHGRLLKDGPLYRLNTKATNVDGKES
Strand | E-score
GTCCGGGA | 0.166
GTACACGA | 0.0805
GAATGCTC | -0.142
ACCCCACT | -0.223
CATCGGCA | 0.135
CTCCCCCC | -0.207
ATTTATTC | -0.0511
CGAATCGC | 0.118
AGTTGAGA | -0.286
CCCACTCG | -0.099
CTTGCGCC | 0.286
GACTAGTC | -0.152
ACATATTC | -0.13
CTGTTCTC | -0.0254
CATTTAGC | -0.105
AGACGGTA | 0.132
CGCAAAAG | 0.163
CCTAGGAG | -0.134
CGCGGCAA | 0.381
GGCTAAAA | 0.0973
GCTGCTCC | 0.0655
ATTTAGAG | -0.131
CGCCCCTA | 0.106
CTCGAGTA | 0.012
ATGGGCCC | -0.0805

Study 2
Target: Sal-like protein 4, full length isoform A (SALL4, Homo sapiens, UniProt Q9UJQ4, residues 1-1053)
Sequence of UniProt Q9UJQ4 (whole entry, looked up): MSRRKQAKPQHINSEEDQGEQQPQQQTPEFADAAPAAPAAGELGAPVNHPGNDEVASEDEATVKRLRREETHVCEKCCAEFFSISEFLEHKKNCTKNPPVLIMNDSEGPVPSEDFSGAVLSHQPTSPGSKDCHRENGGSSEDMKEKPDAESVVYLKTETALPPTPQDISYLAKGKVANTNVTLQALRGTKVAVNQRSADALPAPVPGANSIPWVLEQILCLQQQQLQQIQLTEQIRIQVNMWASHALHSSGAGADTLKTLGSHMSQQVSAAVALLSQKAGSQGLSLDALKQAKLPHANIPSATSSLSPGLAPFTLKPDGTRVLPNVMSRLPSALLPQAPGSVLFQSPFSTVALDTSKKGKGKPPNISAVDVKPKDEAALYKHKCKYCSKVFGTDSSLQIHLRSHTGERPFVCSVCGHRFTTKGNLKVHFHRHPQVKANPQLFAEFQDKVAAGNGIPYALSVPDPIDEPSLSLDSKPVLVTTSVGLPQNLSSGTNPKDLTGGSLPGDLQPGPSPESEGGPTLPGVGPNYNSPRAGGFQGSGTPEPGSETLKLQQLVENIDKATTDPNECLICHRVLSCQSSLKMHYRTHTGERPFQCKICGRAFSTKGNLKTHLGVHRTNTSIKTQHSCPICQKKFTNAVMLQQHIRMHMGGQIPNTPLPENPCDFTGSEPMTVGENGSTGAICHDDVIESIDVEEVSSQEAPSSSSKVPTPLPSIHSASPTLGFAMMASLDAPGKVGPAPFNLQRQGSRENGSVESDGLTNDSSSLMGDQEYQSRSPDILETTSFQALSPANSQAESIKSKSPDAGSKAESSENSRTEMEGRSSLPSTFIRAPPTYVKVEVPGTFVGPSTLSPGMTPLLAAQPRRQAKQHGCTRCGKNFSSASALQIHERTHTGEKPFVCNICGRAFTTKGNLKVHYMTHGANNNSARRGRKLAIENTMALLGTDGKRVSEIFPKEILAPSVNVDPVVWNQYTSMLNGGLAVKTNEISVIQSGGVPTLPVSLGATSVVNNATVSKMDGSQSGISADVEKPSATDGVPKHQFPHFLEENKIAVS
Method: universal PBM
Form: double-stranded DNA, one strand shown
Matrix: in vitro
Concentration: 600 nM
Notes: 8-mer, flanks averaged, mean of replicates
Direction: higher = stronger binding
Strand | E-score
AGAGGTCG | -0.0802
ATACGTCC | -0.055
AAGATGTG | 0.144
AAATCGCC | -0.188
CTAGATTA | 0.207
AGCCTCAC | -0.176
CTGGGCAA | -0.0834
TACCAAGA | 0.114
CAGCCAAA | 0.0372
CAGGGAAC | -0.133
GCGTGAAA | 0.0914
ACGGATAT | 0.237
GCGTTAGC | -0.0359
CATGAATG | 0.171
GTGCGGAA | -0.0695
AGCTCGGG | -0.291
AACCTTCT | -0.108
GGTTACAA | 0.23
ACCCCCTG | -0.267
ACCGTCGT | -0.149
GCCATACC | -0.251
AGAGCAGG | 0.00216
AACGTCGA | 0.144
ACACTCCG | -0.185
CGTACATA | 0.324

Study 3
Target: Centromere-binding protein 1, full length, His-tagged (CBF1, Saccharomyces cerevisiae, UniProt P17106, residues 1-351)
Sequence of UniProt P17106 (whole entry, looked up): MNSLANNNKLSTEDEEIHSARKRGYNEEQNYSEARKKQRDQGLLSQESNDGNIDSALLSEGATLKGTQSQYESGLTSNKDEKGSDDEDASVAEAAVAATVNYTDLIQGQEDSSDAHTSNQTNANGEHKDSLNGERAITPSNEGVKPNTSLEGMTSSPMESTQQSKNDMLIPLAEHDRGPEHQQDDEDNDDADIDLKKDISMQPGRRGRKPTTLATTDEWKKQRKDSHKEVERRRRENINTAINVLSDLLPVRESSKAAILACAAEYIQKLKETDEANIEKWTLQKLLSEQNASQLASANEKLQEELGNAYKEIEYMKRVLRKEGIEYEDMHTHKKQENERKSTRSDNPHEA
Method: competition protein-binding microarray
Form: double-stranded DNA, one strand shown
Matrix: in vitro
Concentration: 2 µM
Notes: whole 60-bp probe, lowest competitor level
With: Pho4 competitor, 0.05 µM
Direction: higher = stronger binding
Constant ends, left off below: … GTCTTGATTCGCTTGACGCTGCTG
Strand | fluorescence intensity
CGTCCTAGTGATTGCACAGTGGGTGCCATGAGGAAG | 76.2 a.u.
TATTTTACTATCTTACACGTGTTGGTAACATAAACG | 1530 a.u.
AAAGCGGTAATTTGCATAGTGGGTGCAGATATCTAT | 78.6 a.u.
AAAGCGGTAATTTGGCACGTGTTTTCACATATCTAT | 3480 a.u.
GTCCTAGATCAAAGACACCTGACGATGATAGCCATT | 186 a.u.
AAATTACTAAGTTGCGTTGTGGGTGACGCCGTATGA | 70.9 a.u.
ACAACTATAATGGATGACATGATGAATATGTAGTGG | 85.6 a.u.
CTTCTGTAAATTTGGCAAGTGGGTGGACGCGCCCCG | 82.3 a.u.
AAATTACTAAGTTGTCTTGTGGGTGACGCCGTATGA | 75.7 a.u.
TAACATCGCATACATCATGTTTAGGAGGCTTGAACA | 76 a.u.
TTTTATGCGATATTACATGTGTCAATAGCAAAAGGG | 98.4 a.u.
TACTCTGTAGTATTCCCCGTGAGGATCCACAGCACC | 88.5 a.u.
AGATCGACGGAAGAGAACGTGCAAACCTTTGGGCTG | 112 a.u.
CTAACGAAGGTTTGTCACACGACTTACAAGCCAAGT | 126 a.u.
AGGGGCCGTCCACCAAACGTGACTCGACGAGTTGAC | 362 a.u.
ATAAGTAAACTCTCACACATGCTAACTTCTGTTGGG | 101 a.u.
AAAGCGGTAATTTTTCACGTGTAGTCAAATATCTAT | 973 a.u.
AAACATAGGACGGAACACGTGTGAAAGACAAATCTT | 1340 a.u.
CTAACGAAGGTTTGGATGGTGGGTGACAAGCCAAGT | 61.5 a.u.

Study 4
Target: Ras GTPase-activating protein-binding protein 1, full length (G3BP1, Homo sapiens, UniProt Q13283)
Sequence of UniProt Q13283 (whole entry, looked up): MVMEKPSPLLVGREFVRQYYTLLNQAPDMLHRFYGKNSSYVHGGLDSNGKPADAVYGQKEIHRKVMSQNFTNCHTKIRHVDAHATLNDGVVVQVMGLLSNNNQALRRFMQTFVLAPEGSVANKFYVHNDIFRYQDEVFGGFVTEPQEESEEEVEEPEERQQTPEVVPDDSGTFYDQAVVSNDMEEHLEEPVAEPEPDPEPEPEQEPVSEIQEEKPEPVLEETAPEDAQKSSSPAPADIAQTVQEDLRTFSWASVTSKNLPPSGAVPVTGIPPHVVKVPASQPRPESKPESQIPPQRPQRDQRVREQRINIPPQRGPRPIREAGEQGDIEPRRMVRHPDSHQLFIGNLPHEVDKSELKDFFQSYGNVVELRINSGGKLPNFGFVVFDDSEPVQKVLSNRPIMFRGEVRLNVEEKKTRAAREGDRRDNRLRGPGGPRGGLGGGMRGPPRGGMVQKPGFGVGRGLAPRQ
Method: RNA Bind-n-Seq
Form: RNA
Matrix: in vitro
Concentration: 200 nM
Notes: whole 134-nt RNA, ends assumed
With: 150 mM KCl
Baseline: input library
Direction: higher = stronger binding
Constant ends, left off below: GGGAGUUCUACAGUCCGACGAUC … UGGAAUUCUCGGGUGUCAAGG
Strand | log2 enrichment
UGUGCUACACAUCGUAUGUACCGAAUCGGGGAAAAAAAGGGAAAAAAAGGGGAAAAAAAGGGAAAGUAUUAUGUUACGCCGUUCGGAUCU | -0.669
UCCUGUGCUACACAUCGUAUGUACCGAAUCGGGGCCCCCCGGCCCCCCGGCCCCCCGGGAAAGUAUUAUGUUACGCCGUUCGGAUCUGCA | -0.314
CAAGUCCUGUGCUACACAUCGUAUGUACCGAAUCGGUUUUUGGAAAGGAAAAAGGAAAGUAUUAUGUUACGCCGUUCGGAUCUGCACUUC | -0.832
ACUUUGUCAGAUAUUGCUAGGGACCAGUGAGAUAGAUAAUCCAAAAAUAAUAAUUUGACUUUGGUUGAGUAUGUCAUUACCACAGUGUUA | -2.04
UGAUCUCCAGGAUGACAUGCGAAGAUGCCAAAUCAUCCGAGACAUGAUUGGACCGGAAAAGACUUUGGUAAAUAUCCUCUCACACCACUA | -1.22
GCUCGCCCGAGCUCAGAGGUGAUCAAAGACGCCAACUUGUACAUCAGCGGGCUCCCGCGGACCAUGACCCAGAAGGACGUAGAAGACAUG | -0.422
ACCAUGCAGGUGGGCAUCUUUGGGAAGUUGGGCAAGGGGGGGAUAGGGAGGGGGGUAACACUUUGGGAACAGGUGGUCCCAGGUCGUUUC | 1.05
UCAAGUCCUGUGCUACACAUCGUAUGUACCGAAUCGGGGUGGGGUGGGGUGGGGAAAGUAUUAUGUUACGCCGUUCGGAUCUGCACUUCC | 1.25
CCUGUGCUACACAUCGUAUGUACCGAAUCGGGUUUUUUGGGGUUUUUUGGGGUUUUUUGGGAAAGUAUUAUGUUACGCCGUUCGGAUCUG | -0.445
UGGGAGGUGGAUUUUGUUUAUUUUUUUAGCUCAUUUCCAGGGGUGGGAAUUUUUUUUUAGUAUGUGUCAUGAAUAAAGUUGUUUUUGAAA | 0.448
